{"data": "Measurements from different studies", "note": "Every numbered part comes from another study and shows a few of its results, in no order. Changes are numbered by the printed parent chain.", "sequence of UniProt O24407 (whole entry, looked up)": "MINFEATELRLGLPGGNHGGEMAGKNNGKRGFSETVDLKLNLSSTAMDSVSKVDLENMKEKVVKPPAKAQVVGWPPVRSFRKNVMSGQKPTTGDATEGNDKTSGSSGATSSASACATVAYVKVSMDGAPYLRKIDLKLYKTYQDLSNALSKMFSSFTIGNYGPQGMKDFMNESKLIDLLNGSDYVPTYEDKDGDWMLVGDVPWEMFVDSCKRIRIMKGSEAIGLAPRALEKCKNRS", "sequence of UniProt Q38830 (whole entry, looked up)": "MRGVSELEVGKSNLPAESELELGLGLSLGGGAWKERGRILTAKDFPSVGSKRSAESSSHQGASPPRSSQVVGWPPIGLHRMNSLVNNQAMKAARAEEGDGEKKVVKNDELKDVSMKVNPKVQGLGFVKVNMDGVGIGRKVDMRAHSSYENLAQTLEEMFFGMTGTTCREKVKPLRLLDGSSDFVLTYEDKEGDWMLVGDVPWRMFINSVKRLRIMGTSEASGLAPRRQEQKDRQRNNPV", "sequence of UniProt Q8L7G0 (whole entry, looked up)": "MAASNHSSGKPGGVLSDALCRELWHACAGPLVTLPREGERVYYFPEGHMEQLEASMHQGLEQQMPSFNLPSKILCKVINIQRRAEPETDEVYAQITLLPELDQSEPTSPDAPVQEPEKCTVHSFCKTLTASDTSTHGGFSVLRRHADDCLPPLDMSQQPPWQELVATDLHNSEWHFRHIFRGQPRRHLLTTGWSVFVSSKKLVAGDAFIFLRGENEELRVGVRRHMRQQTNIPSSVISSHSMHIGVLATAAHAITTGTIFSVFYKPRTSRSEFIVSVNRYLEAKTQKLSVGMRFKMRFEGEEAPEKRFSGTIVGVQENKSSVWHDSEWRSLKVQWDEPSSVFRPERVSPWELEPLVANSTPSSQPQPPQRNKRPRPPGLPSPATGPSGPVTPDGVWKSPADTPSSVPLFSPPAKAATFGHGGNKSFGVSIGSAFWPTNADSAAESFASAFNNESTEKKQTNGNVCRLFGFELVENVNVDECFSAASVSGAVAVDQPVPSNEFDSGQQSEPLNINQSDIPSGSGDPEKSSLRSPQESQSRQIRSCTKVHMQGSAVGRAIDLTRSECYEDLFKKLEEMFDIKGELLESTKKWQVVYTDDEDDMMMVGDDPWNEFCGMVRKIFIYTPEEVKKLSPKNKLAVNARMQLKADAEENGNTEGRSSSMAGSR", "sequence of UniProt Q9FGV1 (whole entry, looked up)": "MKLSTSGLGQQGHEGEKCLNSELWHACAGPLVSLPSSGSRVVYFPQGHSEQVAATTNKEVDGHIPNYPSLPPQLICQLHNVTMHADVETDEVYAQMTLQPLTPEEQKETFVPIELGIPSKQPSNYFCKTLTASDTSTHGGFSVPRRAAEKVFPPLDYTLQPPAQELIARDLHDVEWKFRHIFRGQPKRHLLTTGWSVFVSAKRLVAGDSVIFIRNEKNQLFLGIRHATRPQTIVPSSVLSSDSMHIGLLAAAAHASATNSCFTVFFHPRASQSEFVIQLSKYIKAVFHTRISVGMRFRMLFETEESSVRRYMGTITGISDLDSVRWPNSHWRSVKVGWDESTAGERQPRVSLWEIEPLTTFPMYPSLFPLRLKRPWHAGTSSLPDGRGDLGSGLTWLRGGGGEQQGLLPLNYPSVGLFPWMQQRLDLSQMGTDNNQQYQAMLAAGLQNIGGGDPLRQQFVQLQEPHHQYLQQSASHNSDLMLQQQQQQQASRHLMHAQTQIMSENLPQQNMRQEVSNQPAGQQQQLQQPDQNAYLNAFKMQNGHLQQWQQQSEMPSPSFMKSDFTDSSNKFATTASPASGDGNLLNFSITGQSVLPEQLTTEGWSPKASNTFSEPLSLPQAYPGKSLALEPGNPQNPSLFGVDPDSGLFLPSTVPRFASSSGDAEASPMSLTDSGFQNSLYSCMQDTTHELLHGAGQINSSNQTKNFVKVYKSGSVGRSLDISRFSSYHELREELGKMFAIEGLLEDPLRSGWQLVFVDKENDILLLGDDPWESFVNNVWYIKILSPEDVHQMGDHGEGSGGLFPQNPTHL", "sequence of UniProt Q8RYC6 (whole entry, looked up)": "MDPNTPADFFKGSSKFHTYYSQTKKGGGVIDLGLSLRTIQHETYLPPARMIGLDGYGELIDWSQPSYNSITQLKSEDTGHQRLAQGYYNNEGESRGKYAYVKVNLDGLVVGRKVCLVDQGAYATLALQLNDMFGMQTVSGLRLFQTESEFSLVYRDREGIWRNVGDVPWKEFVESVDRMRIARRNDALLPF", "sequence of UniProt Q8H174 (whole entry, looked up)": "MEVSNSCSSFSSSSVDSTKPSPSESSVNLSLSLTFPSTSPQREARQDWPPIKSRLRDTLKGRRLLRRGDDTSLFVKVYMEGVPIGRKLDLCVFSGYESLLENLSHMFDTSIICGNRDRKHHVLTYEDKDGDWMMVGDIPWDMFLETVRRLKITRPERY"}
{"data": "Study 1", "target": "Histone acetyltransferase KAT6A, winged helix 2, GST fusion (KAT6A, Homo sapiens, UniProt Q92794, residues 85-181)", "method": "protein binding microarray", "form": "double-stranded DNA, one strand shown", "matrix": "in vitro", "tested at": "not given", "setting": "8-mer, flanks averaged, mean of 2 arrays, mostly near background", "baseline": "not given", "direction": "higher = stronger binding", "Residues (chain)": "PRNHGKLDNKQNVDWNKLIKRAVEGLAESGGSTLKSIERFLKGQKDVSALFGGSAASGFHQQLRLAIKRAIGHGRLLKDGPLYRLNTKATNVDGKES"}
{"Oligonucleotide": "CATAATGC", "E-score": -0.145}
{"Oligonucleotide": "GACCGTCA", "E-score": -0.0757}
{"Oligonucleotide": "CACGATTC", "E-score": 0.0116}
{"Oligonucleotide": "AAAGAAGG", "E-score": -0.0362}
{"Oligonucleotide": "TCTTCACA", "E-score": 0.0652}
{"Oligonucleotide": "GCGAGGCC", "E-score": 0.159}
{"Oligonucleotide": "AGAGAGCG", "E-score": -0.00481}
{"Oligonucleotide": "GGTGCGAC", "E-score": 0.0615}
{"Oligonucleotide": "CGTTCGAA", "E-score": 0.0788}
{"Oligonucleotide": "CATGATAA", "E-score": -0.0399}
{"Oligonucleotide": "CCTATCCA", "E-score": -0.129}
{"Oligonucleotide": "CGATAAAG", "E-score": -0.0193}
{"Oligonucleotide": "ATACCTGG", "E-score": -0.312}
{"Oligonucleotide": "GCGTTCGA", "E-score": 0.107}
{"Oligonucleotide": "GAAATTGA", "E-score": 0.0274}
{"Oligonucleotide": "CTCCGCAA", "E-score": 0.0324}
{"Oligonucleotide": "TACATTAA", "E-score": 0.111}
{"Oligonucleotide": "GTGAAGAA", "E-score": 0.0175}
{"Oligonucleotide": "GCAGCGGA", "E-score": 0.121}
{"Oligonucleotide": "TAGGAAAA", "E-score": -0.006}
{"Oligonucleotide": "GGGCGCGA", "E-score": 0.323}
{"Oligonucleotide": "ATCATTGG", "E-score": -0.0868}
{"data": "Study 2", "target": "Prothrombin, mature alpha-thrombin (F2, Homo sapiens, UniProt P00734)", "method": "aptamer microarray, sandwich", "form": "DNA with 2'F-ANA", "matrix": "in vitro", "tested at": "200 nM", "setting": "whole 15-mer aptamer, many near background", "with": "Cy3 exosite-II aptamer, 400 nM", "direction": "higher = stronger binding", "oligonucleotide": "GGTTGGTGTGGTTGG"}
{"Modification": "2'F-ANA at 2 4 8 9 10 11 12 13 14", "mean fluorescence intensity": "61.8 a.u."}
{"Modification": "2'F-ANA at 1 2 3 4 6 7 9 10 11 14", "mean fluorescence intensity": "47.1 a.u."}
{"Modification": "2'F-ANA at 1 2 3 4 5 7 10 14", "mean fluorescence intensity": "44.5 a.u."}
{"Modification": "2'F-ANA at 1 2 3 6 9 11 12", "mean fluorescence intensity": "274 a.u."}
{"Modification": "2'F-ANA at 4 5 8 11 12 13 14", "mean fluorescence intensity": "50.9 a.u."}
{"Modification": "2'F-ANA at 1 5 6 7 8 9 12 13 15", "mean fluorescence intensity": "93.2 a.u."}
{"Modification": "2'F-ANA at 2 3 4 6 8 13 14", "mean fluorescence intensity": "261 a.u."}
{"Modification": "2'F-ANA at 2 4 5 6 7 8 10 11", "mean fluorescence intensity": "53.6 a.u."}
{"Modification": "2'F-ANA at 1 2 4 5 7 9 10 11 12 13", "mean fluorescence intensity": "71.3 a.u."}
{"Modification": "2'F-ANA at 1 7 8 9 10 13 15", "mean fluorescence intensity": "74.1 a.u."}
{"Modification": "2'F-ANA at 1 2 4 6 8 10 11 15", "mean fluorescence intensity": "60.6 a.u."}
{"Modification": "2'F-ANA at 4 5 6 8 10 11 13", "mean fluorescence intensity": "48.5 a.u."}
{"Modification": "2'F-ANA at 1 2 4 5 7 8 9 15", "mean fluorescence intensity": "63.7 a.u."}
{"Modification": "2'F-ANA at 1 2 4 5 6 7 9 10 11 14", "mean fluorescence intensity": "86.5 a.u."}
{"Modification": "2'F-ANA at 3 8 11 12 13 14 15", "mean fluorescence intensity": "547 a.u."}
{"Modification": "2'F-ANA at 5 7 9 11 12 13 14", "mean fluorescence intensity": "49.4 a.u."}
{"Modification": "2'F-ANA at 1 2 3 4 5 8 11 12 15", "mean fluorescence intensity": "86.9 a.u."}
{"data": "Study 3", "target": "Interferon regulatory factor 5, full length, phosphomimetic (IRF5, Homo sapiens, UniProt Q13568-2, residues 1-514, S451D/S453D/S456D/S462D)", "method": "protein-binding microarray", "form": "double-stranded DNA, one strand shown", "matrix": "in vitro", "tested at": "940 nM top", "setting": "60-bp whole probe", "with": "salmon DNA 0.4 mg/ml", "baseline": "random background probes", "direction": "higher = stronger binding", "constant ends, left off below": "GCCTAGCAC … GTCTTGATTCGCTTGACGCTGCTG"}
{"Oligonucleotide": "GACGGTTTCGGGTACCGGGACGTGCTA", "fitted relative affinity [z-score]": 9.54}
{"Oligonucleotide": "TCAGTACTTTCTATCTCACTGTGCTAG", "fitted relative affinity [z-score]": 2.45}
{"Oligonucleotide": "TTCGGACTGCTACTGCTTTAGTGCTAG", "fitted relative affinity [z-score]": -0.405}
{"Oligonucleotide": "GACGATTTCAGTTCCCAGACGTGCTAG", "fitted relative affinity [z-score]": 0.72}
{"Oligonucleotide": "TTATATCTCAGTTTCGATTAGTGCTAG", "fitted relative affinity [z-score]": 8.62}
{"Oligonucleotide": "TCATGTTTCTGTGTCACACTGTGCTAG", "fitted relative affinity [z-score]": 1.87}
{"Oligonucleotide": "AGATACCTTTAACAGTGCCTGTGCTAG", "fitted relative affinity [z-score]": -0.0904}
{"Oligonucleotide": "GACGGTTCCGGTTTCGTGACGTGCTAG", "fitted relative affinity [z-score]": 3.95}
{"Oligonucleotide": "TTAGGTTTCCTTTCACTTTAGTGCTAG", "fitted relative affinity [z-score]": 3.1}
{"Oligonucleotide": "GACGGTCTCGGACTGGAGACGTGCTAG", "fitted relative affinity [z-score]": 0.583}
{"Oligonucleotide": "TTAGGTTTCGGTTCCGGTTAGTGCTAG", "fitted relative affinity [z-score]": 15.2}
{"Oligonucleotide": "TTAGATTTCGGGTATCGACTAGTGCTA", "fitted relative affinity [z-score]": 2.28}
{"Oligonucleotide": "TCACCCCTCTCTTTCCAACTGTGCTAG", "fitted relative affinity [z-score]": 1.02}
{"Oligonucleotide": "GACGAACTGAGATTGGAGACGTGCTAG", "fitted relative affinity [z-score]": -0.554}
{"Oligonucleotide": "TTAGGACTGGGTCTCCGTTAGTGCTAG", "fitted relative affinity [z-score]": -0.384}
{"Oligonucleotide": "TTAGAACTGAGTCTCGATTTGTGCTAG", "fitted relative affinity [z-score]": 2.5}
{"Oligonucleotide": "TTAGGTATCCTTATCCGTTAGTGCTAG", "fitted relative affinity [z-score]": 0.34}
{"Oligonucleotide": "GACGGTCTCCTACTGCTGACGTGCTAG", "fitted relative affinity [z-score]": -0.158}
{"Oligonucleotide": "TTAAGTTTCCTTATCCTTTAGTGCTAG", "fitted relative affinity [z-score]": 2.31}
{"Oligonucleotide": "GACGGTATCCTTATCCAGACGTGCTAG", "fitted relative affinity [z-score]": 0.276}
{"Oligonucleotide": "TCACACCAGAGGGCGCTGTGGTGCTAG", "fitted relative affinity [z-score]": -0.287}
{"data": "Study 4", "target": "ABI1, truncated, D143A, DHFR fusion (Arabidopsis thaliana)", "method": "DHFR PCA, deep sequencing", "matrix": "yeast", "setting": "methotrexate growth selection, single substitutions", "with": "(+)-ABA 2500 µM", "baseline": "wild-type fitted maximum", "direction": "higher = stronger binding", "starting sequence": "PYL1, truncated, DHFR fusion (Arabidopsis thaliana); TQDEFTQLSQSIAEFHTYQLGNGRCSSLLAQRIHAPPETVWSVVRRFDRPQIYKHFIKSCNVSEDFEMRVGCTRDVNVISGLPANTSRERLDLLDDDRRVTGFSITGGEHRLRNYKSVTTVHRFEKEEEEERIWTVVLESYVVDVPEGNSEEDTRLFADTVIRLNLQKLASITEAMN"}
{"Substitution": "N77E", "relative binding score": "101%"}
{"Substitution": "N165C", "relative binding score": "47.2%"}
{"Substitution": "S171N", "relative binding score": "94.2%"}
{"Substitution": "R45M", "relative binding score": "69.1%"}
{"Substitution": "N177V", "relative binding score": "93.6%"}
{"Substitution": "D48R", "relative binding score": "78.9%"}
{"Substitution": "H16Q", "relative binding score": "53.3%"}
{"Substitution": "S140M", "relative binding score": "31.4%"}
{"Substitution": "D75S", "relative binding score": "99.3%"}
{"Substitution": "A84M", "relative binding score": "34.4%"}
{"Substitution": "S117W", "relative binding score": "11.4%"}
{"Substitution": "E67Q", "relative binding score": "95.4%"}
{"Substitution": "P83C", "relative binding score": "74.3%"}
{"Substitution": "K58Q", "relative binding score": "91.8%"}
{"Substitution": "S59C", "relative binding score": "95.9%"}
{"Substitution": "F157P", "relative binding score": "-10.7%"}
{"Substitution": "A175G", "relative binding score": "96.2%"}
{"Substitution": "R32Y", "relative binding score": "95.9%"}
{"Substitution": "I162P", "relative binding score": "-4.55%"}
{"Substitution": "N114P", "relative binding score": "39.2%"}
{"Substitution": "F124H", "relative binding score": "92.7%"}
{"Substitution": "V62F", "relative binding score": "92.8%"}
{"Substitution": "S104V", "relative binding score": "89.6%"}
{"data": "Study 5", "Molecule": "B1 (IAA10)", "method": "two-hybrid", "baseline": "out of 4 tests", "direction": "higher = firmer interaction", "B1": "IAA10 (Arabidopsis thaliana, UniProt Q38828); chain MNGLQEVCSSSGSVMIGLPAEEDENAAHSSEDSSCPDESVSETELDLALGLSIGRRKVRSSLSSSSSSLTRESGTKRSADSSPAAASNATRQVAVGWPPLRTYRINSLVNQAKSLATEGGLSSGIQKETTKSVVVAAKNDDACFIKSSRTSMLVKVTMDGVIIGRKVDLNALDSYAALEKTLDLMFFQIPSPVTRSNTQGYKTIKETCTSKLLDGSSEYIITYQDKDGDWMLVGDVPWQMFLGSVTRLRIMKTSIGAGVGK"}
{"partner": "IAA12 (Arabidopsis thaliana, UniProt Q38830)", "positive tests": 1}
{"partner": "IAA16 (Arabidopsis thaliana, UniProt O24407)", "positive tests": 2}
{"partner": "IAA31 (Arabidopsis thaliana, UniProt Q8H174)", "positive tests": 4}
{"partner": "ARF1 538-665 (Arabidopsis thaliana, UniProt Q8L7G0)", "positive tests": 0}
{"partner": "ARF8 699-811 (Arabidopsis thaliana, UniProt Q9FGV1)", "positive tests": 4}
{"partner": "IAA32 (Arabidopsis thaliana, UniProt Q8RYC6)", "positive tests": 1}
{"note": "Some of these lines once more (study 4):"}
{"Substitution": "P83C", "relative binding score": "74.3%"}
{"Substitution": "A175G", "relative binding score": "96.2%"}
{"Substitution": "S117W", "relative binding score": "11.4%"}
{"Substitution": "S59C", "relative binding score": "95.9%"}
{"Substitution": "A84M", "relative binding score": "34.4%"}
{"Substitution": "S140M", "relative binding score": "31.4%"}
{"Substitution": "N114P", "relative binding score": "39.2%"}
{"Substitution": "F124H", "relative binding score": "92.7%"}
{"Substitution": "S171N", "relative binding score": "94.2%"}
